# Measured values gathered from unrelated publications.
# Each numbered part is a random draw from the data of one study; scales do not carry over between parts.

# Block 1 — technique: RNA Bind-n-Seq; molecule type: RNA; medium: in vitro; tested at: 365 nM; relative to: no-protein control; direction: higher = stronger binding
# Target: RNA binding protein fox-1 homolog 2, RRM domain, GST-SBP tag (RBFOX2, Homo sapiens, UniProt O43251-10, residues 100-194)
# Notes: natural RNA segment, single round, ends assumed
# Construct (chain): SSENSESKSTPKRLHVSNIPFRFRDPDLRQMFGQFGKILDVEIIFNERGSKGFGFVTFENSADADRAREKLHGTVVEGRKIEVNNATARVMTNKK
Sequence,RBNS enrichment (R)
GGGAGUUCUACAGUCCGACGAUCACAGAAGAACUCUGGUAAUGCUUAGUCUUGUGAGAACCAGUUAUUCUGGGCUGUGAAGGCAGUUGCCACUGUUAUGCAGUGGCUGCUUUUGAGGGACGCACUGUGAAGAAUGGAAUUCUCGGGUGCCAA,0.758
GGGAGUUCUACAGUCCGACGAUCUUGAGGAAGAAUGCCUGACUCAAAACUGUGACUCUAGAGAACAAUGCACAGCCCUGAGACCCCACUGGACUGCUGCUCCUUAGCUGGUCUAAAUAGAGCUUCUCUGUCCGUGGAAUUCUCGGGUGCCAA,0.226
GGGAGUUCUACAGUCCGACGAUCACAAAUAGUGUUAUUGGAAGGGAUGUGUAAUUUUUCUGUAUAGACAGGAGAAGAAAUAACUAUCUUUUCAUUUGGGAGAGGCUAAAGAUGUUUUCAGCUACUUGCAAAUCUGGAAUUCUCGGGUGCCAA,0.408
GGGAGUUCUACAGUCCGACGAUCAUCUCUCCUCCACCUUGACAAAAGCAGAUUAUAGUAUACAAGGUAGGAAUUCCUGUCCUAUUUGAGAUGAACUAUAUCCUGUACCUCUGUGCUCUGUGUCUGCAUGAAGGUGGAAUUCUCGGGUGCCAA,2.44
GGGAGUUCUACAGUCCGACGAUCCUUUCCCAUUGACCACUUUGGGUUUGACCUGCACAUCUGCAGUGAGGGCAGAAUUCAACAAGCACAACUCACUGGUCUUUCAGUCAACGUGCUAGAAACCGAUGACUUAUUGGAAUUCUCGGGUGCCAA,0.319
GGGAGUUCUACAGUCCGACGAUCAGACAUUGAUAUUGACUAUUUAGAGAACCGUUGUUAAUUUUAAAACUAGCAAUCUAUAAAGUGCACCAGGUCAACUUGAAUAAAAACACUAUGACAGACAGGUUUGCCAGUGGAAUUCUCGGGUGCCAA,0.603
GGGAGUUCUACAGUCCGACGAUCACCUUGUCCUAUAUAUCCGUACGGAGGUGUGCAAUUCCUCGUGUCAGUAGCCUUGUGACACUGAACCUGGAUGGAUUAUAGAGGAGCCCUCACGGCUGAUCAAUAAUGUUUGGAAUUCUCGGGUGCCAA,0.649
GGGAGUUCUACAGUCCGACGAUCUGAUGAUAUGUUAGUUUUGUUGUUCUUUGGGGUUUUAUUCUUCCAGGUAUGUUAUGCACUACAGCCUGAUCUUUUCAGUCUAAGACAGCAUGGCUUCACUUUCCUGUGUUUGGAAUUCUCGGGUGCCAA,0.6
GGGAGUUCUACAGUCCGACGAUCGUAUAUAAGUGUGAAUCUCCUAUAAUGAUGGAAGAAGAGGUUCUCUUGUCUUAGAUAGAAAAGAGCCUUCUCCAAGAGCAAUGUCAAAACUUGGGCUGUCAUCUUUGAGCUGGAAUUCUCGGGUGCCAA,1.42
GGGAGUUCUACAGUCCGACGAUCCCUCUGGGAGCUGGAGAAUCGCUCUGGUGGAUGGGUGUACAGAUUUGUAUAUAAUGUCAUUUUUACGGAAACCCUUUCGGCGUGCAUAAGGAAUCACUGUGUACAAACUGUGGAAUUCUCGGGUGCCAA,0.31
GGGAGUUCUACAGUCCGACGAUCCCUCGACUCUUGAGAGGGAGGCUUUGGUAUCCUUGGGUCUCAGCAUGGACAGUUAUGUAUAUCUACUUGUAUAGAGGGGGACAGUUUUCCACAUCGAUCCUUGCCCUCUUUGGAAUUCUCGGGUGCCAA,1.17
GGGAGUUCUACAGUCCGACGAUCCUUUGCAUACUGUUCAUCGCAGUAGCAACAAAAUUGCAAUCAGCCAACAGGCUUUAAAACGUCCCUGAACGUACAGUAUUCUAAGUUACCGUGAGCCUUCACAAACAUCAUGGAAUUCUCGGGUGCCAA,0.3

# Block 2 — technique: protein-binding microarray; molecule type: double-stranded DNA, one strand shown; medium: in vitro; tested at: 2200 nM top; notes: 60-bp whole probe; with: salmon DNA 0.4 mg/ml; relative to: random background probes; direction: higher = stronger binding; all sequences stand within: GCCTAGCAC … GTCTTGATTCGCTTGACGCTGCTG
# Target: Interferon regulatory factor 7, full length, phosphomimetic (IRF7, Homo sapiens, UniProt Q92985, residues 1-503, S471D/S472D/S475D/S476D/S477D/S483D/S484D/S487D)
# Target sequence (chain): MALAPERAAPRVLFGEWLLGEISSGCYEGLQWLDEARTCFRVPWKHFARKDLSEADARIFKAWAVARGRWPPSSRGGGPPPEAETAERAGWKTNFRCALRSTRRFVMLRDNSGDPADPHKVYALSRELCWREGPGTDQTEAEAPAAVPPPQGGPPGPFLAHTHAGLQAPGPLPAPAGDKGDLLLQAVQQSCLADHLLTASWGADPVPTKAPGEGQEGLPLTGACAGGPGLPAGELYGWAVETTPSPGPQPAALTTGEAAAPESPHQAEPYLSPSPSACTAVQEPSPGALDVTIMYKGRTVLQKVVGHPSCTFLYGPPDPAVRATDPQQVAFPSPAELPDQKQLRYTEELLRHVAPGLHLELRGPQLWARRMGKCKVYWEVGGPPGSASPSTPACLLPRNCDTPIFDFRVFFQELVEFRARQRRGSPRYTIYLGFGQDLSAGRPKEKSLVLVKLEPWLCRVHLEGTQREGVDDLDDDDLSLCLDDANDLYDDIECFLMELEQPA
Sequence,fitted relative affinity [z-score]
TCATCTTCCTTCATGGCACTGTGCTAG,1.85
CTTTCTTTTATGCTCTTTCTGTGCTAG,2.53
TTAGGACTGGACACTGTGTTAGTGCTA,-0.348
TATAATATATATATTGTTAGGTGCTAG,0.0702
TCAGTTTCTCCTTTCGGACTGTGCTAG,5.95
TCAGCTTTTTAGATCGTACTGTGCTAG,0.556
GACGATTTCAGTTTAGAGACGTGCTAG,2.19
GGATGAGTCACTTCTGGTGCTGTGCTA,-0.423
TTAGGTTTCGGTCTCTGTTAGTGCTAG,7.73
TTAGAACTGGGGTATCGATTGGTGCTA,0.158
CACAGTTTGTAAATCTTTTTGTGCTAG,0.771
TTAGGTTCCGGTGTCGGTTAGTGCTAG,0.466
GACGAACTGAATATCGAGACGTGCTAG,-0.0634
CCCTGTCTGTCCAGAAACCCGTGCTAG,0.553
TTAGATATCACTCTCGATTAGTGCTAG,0.543
GACGATTTCAGAGTGGAGACGTGCTAG,-0.0442
TCAGCTTTCCTTCTTGAACTGTGCTAG,2.05

# Block 3 — technique: universal PBM; molecule type: double-stranded DNA, one strand shown; medium: in vitro; tested at: 600 nM; direction: higher = stronger binding
# Target: Sal-like protein 4, full length isoform A (SALL4, Homo sapiens, UniProt Q9UJQ4, residues 1-1053)
# UniProt Q9UJQ4, sequence (whole entry, looked up): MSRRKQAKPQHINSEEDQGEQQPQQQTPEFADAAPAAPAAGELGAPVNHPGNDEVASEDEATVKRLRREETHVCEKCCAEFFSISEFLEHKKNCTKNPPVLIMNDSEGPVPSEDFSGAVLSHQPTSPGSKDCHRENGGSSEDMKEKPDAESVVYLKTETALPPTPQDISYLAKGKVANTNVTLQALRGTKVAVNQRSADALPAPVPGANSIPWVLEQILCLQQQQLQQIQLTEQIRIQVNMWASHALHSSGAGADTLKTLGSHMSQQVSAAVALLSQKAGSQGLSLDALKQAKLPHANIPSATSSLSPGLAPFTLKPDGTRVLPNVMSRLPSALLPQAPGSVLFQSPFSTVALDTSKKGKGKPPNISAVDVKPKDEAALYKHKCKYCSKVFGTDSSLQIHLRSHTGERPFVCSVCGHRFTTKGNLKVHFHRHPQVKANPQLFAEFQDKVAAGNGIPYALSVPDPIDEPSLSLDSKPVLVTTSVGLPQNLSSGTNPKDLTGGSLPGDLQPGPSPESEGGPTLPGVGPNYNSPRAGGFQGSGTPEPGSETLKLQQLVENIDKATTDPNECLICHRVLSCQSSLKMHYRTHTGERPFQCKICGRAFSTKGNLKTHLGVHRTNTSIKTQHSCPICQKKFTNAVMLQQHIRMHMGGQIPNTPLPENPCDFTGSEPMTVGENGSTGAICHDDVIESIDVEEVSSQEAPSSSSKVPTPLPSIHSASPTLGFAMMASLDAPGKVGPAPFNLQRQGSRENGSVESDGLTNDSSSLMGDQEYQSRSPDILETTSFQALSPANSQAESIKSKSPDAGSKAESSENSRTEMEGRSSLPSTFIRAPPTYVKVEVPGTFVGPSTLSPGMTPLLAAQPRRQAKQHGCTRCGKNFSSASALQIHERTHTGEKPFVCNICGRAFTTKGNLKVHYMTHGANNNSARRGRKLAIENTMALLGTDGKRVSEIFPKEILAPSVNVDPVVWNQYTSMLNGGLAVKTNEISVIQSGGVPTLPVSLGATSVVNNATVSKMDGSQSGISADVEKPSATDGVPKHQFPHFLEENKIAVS
# Notes: 8-mer, flanks averaged, mean of replicates
Sequence,E-score
ACCTGGAG,-0.103
AAGCCAAT,0.172
AGGGATAG,-0.0141
ATTTCGGC,0.069
CCCGACCG,-0.338
CCGATGCG,-0.241
ACGCGAAG,-0.0217
AGTGCACA,-0.0942
ACTGCACT,0.00276
CACCCAAC,-0.211
AAGGCGGC,-0.168
AATCAGAT,0.148
ATGTGAAG,0.287
GACACGTC,-0.204
CGCTACTC,-0.0692
CCTATTAG,0.135

# Block 4 — technique: EMSA with sequencing; molecule type: double-stranded DNA, one strand shown; medium: in vitro; tested at: 10 and 20 nM; relative to: negative control set to 0; direction: higher = stronger binding
# Target: Hepatocyte nuclear factor 3-alpha (Foxa1, Mus musculus, UniProt P35582, residues 1-468, full length assumed)
# Notes: whole designed probe, mean of two concentrations, ends assumed
# Target sequence (chain): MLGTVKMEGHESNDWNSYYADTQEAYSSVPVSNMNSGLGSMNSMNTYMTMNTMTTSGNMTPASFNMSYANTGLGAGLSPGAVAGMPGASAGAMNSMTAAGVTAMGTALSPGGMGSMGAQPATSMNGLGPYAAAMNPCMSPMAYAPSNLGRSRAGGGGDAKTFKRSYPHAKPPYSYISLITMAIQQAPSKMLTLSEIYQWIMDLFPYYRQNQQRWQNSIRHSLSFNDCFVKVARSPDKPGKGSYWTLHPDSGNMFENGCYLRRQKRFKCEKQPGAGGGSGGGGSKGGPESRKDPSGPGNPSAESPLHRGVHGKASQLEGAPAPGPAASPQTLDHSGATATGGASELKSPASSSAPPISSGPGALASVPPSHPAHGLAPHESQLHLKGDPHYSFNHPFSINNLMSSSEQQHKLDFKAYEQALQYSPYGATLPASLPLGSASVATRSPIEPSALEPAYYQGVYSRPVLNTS
Sequence,normalised bound fraction
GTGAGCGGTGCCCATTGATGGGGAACTCTTTATTGCGTCCTCTATATGAGCCTGATGCTAACTCACGCTACCTCACCCCCTATGCCTCAGGATCACTTACCTGACCCACTAACGCCGGTGTTTACATTGGTTCCTGCCCCGTTTTAGGTGGAGGGGCCCTTCGGAGAACAATGGTGCATTCACCAAGTCTAGATTCCTCTGTAGAAGAGTTATATGCGATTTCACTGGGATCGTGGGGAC,0.303 ratio
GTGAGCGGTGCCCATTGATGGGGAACCATAGTGCTGCCAAGTAATTCTCTAGGTTGTAGAATTATTATTTATTCAGAACACTAAGCTAGATTCAGTTTTCTGCTAAGCTACAAAATAAGTAAACATGAATTACTTGGATTCCAGGATCCTGGATATAGACTAAAGATGACATTCCATTATATTTAGAAAATGACTGTTAAGTAAGAGAAAATTTCCAGATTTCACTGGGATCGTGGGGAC,0.351 ratio
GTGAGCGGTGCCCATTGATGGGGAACTCGGCCAGCCTGGCTTCTGCGCCCCGCCAGGAGGTCGCGGAGCGGAGCGCGGCCAGGAAGTGAGCTGAGAGTGACAGCTCCCCCCACGCTGTTTGTTTATTCTCTCCAATGACTCATTCCACACTGGCTCTTCTTTCTTTCGGGAGGAGGGGAGAAAGGAGCGGGAGGGCGGGCGGGCAGGGGAGAGGCAGGCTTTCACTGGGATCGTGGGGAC,0.425 ratio
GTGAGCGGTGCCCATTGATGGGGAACACTGAACTTCACTCCTGCTAGGGAGCTCTGGGAGCCAGTGTAGAATTGCATCTCCAAGCTGTCCCACCTGAGAGGTGAGGAAGCTCAAGTACTTATTTACTGATTCAGTATTGTGCTGGCAACGGGTTCTCCAGTAGGAGGTCAAGGGAGCCCTGATTTGTAGCATTTGCCAATGACCATGGTGTAAATACTCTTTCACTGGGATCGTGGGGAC,0.0569 ratio
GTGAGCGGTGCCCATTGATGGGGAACGGTTGGACACCCCTGCTTTAATGTATGGAAATTGTGTACTCTGTATATATTCAAAGTACTGTGTGTATATTTGAGTATATTTGAATATTCCAAAGTAAACAAATAACTATGAAAGAATAGTCCTTACATAGCTAACATAAGCTGATCAATAATTAGTTTTTGTTAACCATCTGGTGTATGCTTTCTGTACCAATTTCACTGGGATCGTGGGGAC,0.532 ratio
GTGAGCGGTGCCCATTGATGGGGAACGGGTCAGAGGAGCTTACAGTGAGTGGACAAAGCAATTTTAATCCTGCCTTACTAATTTCGTAGGATATTCACCTTTCTGAAGTCACACAAATGTAATCTTGAAAAATATTCATTATAAAAGAAACCTAGGGAAAGTGCAATCTCTTGAAGAATGTGCATTTTTTACAATTGCATTTGTTTTATTCAAGCGCTTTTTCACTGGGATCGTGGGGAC,-0.0559 ratio
